Published values pooled from the literature.
Lines come from different studies, so protocols differ.

CNC(CC(C)C)C(=O)NC1C(=O)NC(CC(N)=O)C(=O)NC2C(=O)NC3C(=O)NC(C(=O)NC(C(=O)NCCCNC(=N)N)c4cc(O)cc(O)c4-c4cc3ccc4O)C(O)c3ccc(c(Cl)c3)Oc3cc2cc(c3OC2OC(CO)C(O)C(O)C2OC2CC(C)(N)C(O)C(C)O2)Oc2ccc(cc2Cl)C1O (stereo not shown)  MIC (Enterococcus faecium; ATCC BAA-2317 VanA; −LTA): 4 µg/mL
CCCCCCSCC1OC(OC2C(N)CC(N)C(OC3OC(CN)C(O)CC3N)C2O)C(O)C(N)C1O (stereo not shown)  MIC (Streptococcus mutans; UA159): > 150 µg/mL
COc1ccc([C@@H]2CC(=O)c3c(O)cc(O[C@@H]4O[C@H](CO[C@@H]5O[C@@H](C)[C@H](O)[C@@H](O)[C@H]5O)[C@@H](O)[C@H](O)[C@H]4O)cc3O2)cc1O  MIC (Trichophyton mentagrophytes; microbial growth): 12.5 µM
CC(=O)N[C@H](CCCCN)C(=O)N[C@H](CC(C)C)C(=O)N[C@H](CCCCN)C(=O)N[C@H](CO)C(=O)N[C@H](CC(C)C)C(=O)N[C@H](CC(C)C)C(=O)N[C@H](CCCCN)C(=O)N[C@@H](C(=O)N[C@H](CC(C)C)C(=O)N[C@H](CO)C(=O)N[C@H](CCCCN)C(=O)N[C@H](C)C(=O)N[C@H](CCCCN)C(=O)N[C@H](CCCCN)C(=O)N[C@H](CCCCN)C(=O)N[C@H](CC(C)C)C(=O)N[C@H](CC(C)C)C(=O)N[C@H](CCCCN)C(=O)N[C@@H](C(=O)N[C@H](C)C(=O)N[C@H](CC(C)C)C(=O)N[C@H](CCCCN)C(=O)N[C@H](C)C(=O)N[C@H](CC(C)C)C(=O)N[C@H](CO)C(=O)N[C@H](CCCCN)C(N)=O)[C@H](C)O)[C@H](C)O  MIC (Acinetobacter baumannii; 649, Mueller-Hinton broth; 24 h, 37 °C): 0.3 µM
COc1cc(CNC(=O)C[C@H](C)CCC=C(C)C)ccc1OCc1cn(-c2ccc(Br)cc2)nn1  growth percent (ACHN; SRB; 10 µM, 48 h): 56.4%
CCC(=O)N(C)c1ccc(Cl)c(Cl)c1  fold activation (CAR3 constitutive androstane receptor, human; reporter gene, agonist; 32 µM; relative to: vehicle): 0.06 fold
CO[C@H]1/C=C/O[C@@]2(C)Oc3c(C)c(O)c4c(c3C2=O)C2=NC3(CCN(CC(C)C)CC3)NC2=C(NC(=O)/C(C)=C\C=C\[C@H](C)[C@H](O)[C@@H](C)[C@@H](O)[C@@H](C)[C@H](OC(=O)c2ccccc2-c2ccccc2)[C@@H]1C)C4=O  MIC (Mycobacteroides abscessus; ATCC 19977 wild type; 90% growth inhibition): 0.26 µM
CCCCCCCCCCCCCCCCCCCCCCSCC1OC(OC2C(N)CC(N)C(OC3OC(CN)C(O)CC3N)C2O)C(O)C(N)C1O (stereo not shown)  MIC (Streptococcus pyogenes; M12 MGAS9429): > 150 µg/mL
O=C(NCc1nc(-c2ccc(Br)cc2)c[nH]1)Nc1ncc(Sc2ccccn2)s1  MIC (Streptococcus pyogenes; broth microdilution; ATCC 19615; together with: verapamil 50 µg/mL): 0.125 µM
COC1C=COC2(C)Oc3c(C)c(O)c4c(c3C2=O)C2=NC3(CCN(CC(C)C)CC3)NC2=C(NC(=O)C(C)=CC=CC(C)C(O)C(C)C(O)C(C)C(OC(=O)c2cncnc2)C1C)C4=O (stereo not shown)  MIC (Mycobacteroides abscessus; microbial growth; ATCC19977): 0.029 µM
CO[C@H]1/C=C/O[C@@]2(C)Oc3c(C)c(O)c4c(c3C2=O)C2=NC3(CCN(CC(C)C)CC3)NC2=C(NC(=O)/C(C)=C\C=C\[C@H](C)[C@H](O)[C@@H](C)[C@@H](O)[C@@H](C)[C@H](OC(=O)c2ccccc2Cl)[C@@H]1C)C4=O  MIC (Mycobacteroides abscessus; ATCC 19977 wild type; 90% growth inhibition): 0.043 µM
COc1cc(CNC(=O)C[C@H](C)CCC=C(C)C)ccc1OCc1cn(-c2ccc(Cl)c(Cl)c2)nn1  growth percent (ACHN; SRB; 10 µM, 48 h): 71.5%
CN[C@@H]1[C@H](O)[C@H](NC)[C@H]2O[C@]3(O)[C@H](O[C@@H]2[C@H]1O)O[C@H](C)C[C@@]3(O)CNCCc1cccs1  MIC (Mycobacteroides abscessus; microbial growth; ATCC19977; 5 days): 4 µg/mL
CC[C@@H](C)[C@@H](NC(=O)[C@@H](C)NC(=O)[C@@H](CCCCN)NC(=O)[C@@H](CC(C)C)NC(=O)[C@@H](C)NC(=O)[C@H](NC(=O)[C@@H](CCCCN)NC(=O)[C@@H](CC(C)C)NC(=O)[C@H](NC(=O)[C@@H](CCCCN)NC(=O)[C@@H](CCCCN)NC(=O)[C@@H](CCCCN)NC(=O)[C@@H](C)NC(=O)[C@@H](CCCCN)NC(=O)[C@@H](CO)NC(=O)[C@@H](Cc1ccccc1)NC(=O)[C@H](NC(=O)[C@@H](CCCCN)NC(=O)[C@@H](CC(C)C)NC(=O)[C@@H](Cc1ccccc1)NC(=O)[C@@H](CO)NC(=O)[C@@H](CCCCN)NC(=O)[C@@H](Cc1c[nH]c2ccccc12)NC(=O)[C@@H](CCCCN)NC(C)=O)[C@H](C)O)C(C)C)[C@H](C)O)C(=O)N[C@H](CO)C(=O)N[C@H](CCCCN)C(N)=O  MIC (Acinetobacter baumannii; broth microdilution; ATCC 17978; 24 h, 37 °C): 0.7 µM
CO[C@H]1/C=C/O[C@@]2(C)Oc3c(C)c(O)c4c(c3C2=O)C2=NC3(CCN(CC(C)C)CC3)NC2=C(NC(=O)/C(C)=C\C=C\[C@H](C)[C@H](O)[C@@H](C)[C@@H](O)[C@@H](C)[C@H](OC(=O)c2cccnc2)[C@@H]1C)C4=O  MIC (Mycobacteroides abscessus; ATCC 19977 wild type; 90% growth inhibition): 0.024 µM
CC(=O)[O-].CC(=O)[O-].CN(C)C(=N)NC(=N)N.CN(C)C(=N)NC(=N)N.O.O.[Cu+2]  MIC (Salmonella enteritidis; broth microdilution): 128 µg/mL
CN(C)c1cc(CN2CCOCC2)c(O)c2c1C[C@H]1C[C@H]3[C@H](N(C)C)C(O)=C(C(N)=O)C(=O)[C@@]3(O)C(O)=C1C2=O  MIC (Enterococcus faecium; 494, Tet M and Tet L): 2 µg/mL
COc1ccc2c(c1CC=C(C)C)O[C@H]1c3cc4c(cc3OC[C@@]21O)OC(C)(C)C=C4  MIC (Streptococcus pyogenes; ATCC 19615): inactive
C=CCNCc1cc(N(C)C)c2c(c1O)C(=O)C1=C(O)[C@]3(O)C(=O)C(C(N)=O)=C(O)[C@@H](N(C)C)[C@@H]3C[C@@H]1C2  MIC (Enterococcus faecium; 494, Tet M and Tet L): 2 µg/mL
COc1ccc2c3c(oc2c1CC=C(C)C)-c1cc(CC=C(C)C)c(O)cc1OC3  MIC (Streptococcus pyogenes; ATCC 19615): inactive
CC1C=CC=CC(C)C2C=CC3CC(C)(O)C(Cl)C(C)C3C2C(=O)C(Cl)(Cl)C(=O)C(C)C(=O)O1 (stereo not shown)  MIC (Staphylococcus aureus; microbial growth, broth dilution; NEWMAN): 0.2 µg/mL
CNC(CC(C)C)C(=O)NC1C(=O)NC(CC(N)=O)C(=O)NC2C(=O)NC3C(=O)NC(C(=O)NC(C(=O)NCCCNC(=N)N)c4cc(O)cc(O)c4-c4cc3ccc4O)C(O)c3ccc(c(Cl)c3)Oc3cc2cc(c3OC2OC(CO)C(O)C(O)C2OC2CC(C)(NCc3ccc(-c4ccc(Cl)cc4)cc3)C(O)C(C)O2)Oc2ccc(cc2Cl)C1O (stereo not shown)  MIC (Enterococcus faecium; ATCC BAA-2317 VanA; together with: +LTA 100 µg/mL): 2.5 µg/mL

For quick reference, copied from above:
CC1C=CC=CC(C)C2C=CC3CC(C)(O)C(Cl)C(C)C3C2C(=O)C(Cl)(Cl)C(=O)C(C)C(=O)O1 (stereo not shown)  MIC (Staphylococcus aureus; microbial growth, broth dilution; NEWMAN): 0.2 µg/mL
CCCCCCCCCCCCCCCCCCCCCCSCC1OC(OC2C(N)CC(N)C(OC3OC(CN)C(O)CC3N)C2O)C(O)C(N)C1O (stereo not shown)  MIC (Streptococcus pyogenes; M12 MGAS9429): > 150 µg/mL
